Experimental data from different studies.
Each numbered part is a random draw from the data of one study; scales do not carry over between parts.

Block 1 — technique: protein-binding microarray; molecule type: double-stranded DNA, one strand shown; medium: in vitro; tested at: 940 nM top; notes: 60-bp whole probe; together with: salmon DNA 0.4 mg/ml; relative to: random background probes; direction: higher = stronger binding; shared flanks, not repeated: GCCTAGCAC … GTCTTGATTCGCTTGACGCTGCTG
Target: Interferon regulatory factor 5, full length, phosphomimetic (IRF5, Homo sapiens, UniProt Q13568-2, residues 1-514, S451D/S453D/S456D/S462D)
| Strand | fitted relative affinity |
| --- | --- |
| TTAGGACTGGGCACTGGGTTAGTGCTA | -0.314 z-score |
| GACGGTATCGGTTCCGGGACGTGCTAG | 9.17 z-score |
| TTAGACATCGGGTTTCGATTAGTGCTA | 5.36 z-score |
| TTATATCTCAGTATCGATTAGTGCTAG | 5.88 z-score |
| GACGAACTGGCGTATCGAGACGTGCTA | 0.0263 z-score |
| GACGAACTAAGACTGGAGACGTGCTAG | -0.883 z-score |
| TTAGGTATCGACTTTTGGTTAGTGCTA | 4.43 z-score |
| TTCAGTTTCACTGCTGCCCTGTGCTAG | 6.6 z-score |
| TTAGATATCAGTTTCGATCAGTGCTAG | 7.47 z-score |
| GTCGATTTCGGGTATCGAGACGTGCTA | 2.83 z-score |
| TTAGATTTCACTATCGATTAGTGCTAG | 1.45 z-score |
| GACGGTCCCGGTTTCGGGACGTGCTAG | 3.57 z-score |
| TCAAGTTCATGTTTTGGACTGTGCTAG | -0.214 z-score |
| TTAGGTTTCAGTCTCGATTAGTGCTAG | 8.25 z-score |
| GACGGCCTGGACACTGGGGACGTGCTA | -0.571 z-score |
| TCATTTTTTTTCATCATTGCGTGCTAG | 1.64 z-score |
| TTAGGACTGCTTATCTTTTAGTGCTAG | 0.0502 z-score |
| TTAGGTTTCGGTATCGTTTAGTGCTAG | 15.3 z-score |
| GACGGACTGGGACTGGGGAGGTGCTAG | -0.617 z-score |
| TTGGTTCTCAGCTTGGGGCAGTGCTAG | 0.614 z-score |
| GACGATATCAGTTTCGAGCCGTGCTAG | 3.06 z-score |
| GACGGTTTCGACTTTCGGGTCGTGCTA | 8.26 z-score |
| GACGGTCTCGATATCGGGACGTGCTAG | 4.06 z-score |
| GACGGTTTCGATATCGGGACGTGCTAG | 12 z-score |
| TTACGACTGCTTATCCTTTAGTGCTAG | 0.483 z-score |

Block 2 — technique: RNA Bind-n-Seq; molecule type: RNA; medium: in vitro; tested at: 200 nM; notes: whole 134-nt RNA, ends assumed; together with: 150 mM KCl; relative to: input library; direction: higher = stronger binding
Target: Fragile X messenger ribonucleoprotein 1, C-terminal low-complexity region (Fmr1, Mus musculus, UniProt P35922)
Shared flanks, not repeated: GGGAGUUCUACAGUCCGACGAUC … UGGAAUUCUCGGGUGUCAAGG
| Strand | log2 enrichment |
| --- | --- |
| AGUCCUGUGCUACACAUCGUAUGUACCGAAUCGGGUUUUUUUGGGAAAGGGUUUGGGAAAGUAUUAUGUUACGCCGUUCGGAUCUGCACU | 0.218 |
| UGGCCCUGGUGGCAUGCGGGGAAGAAGAGGUGGCCUCAUGGAUCGUGGUGGUCCCGGUGGAAUGUUCAGAGGUGGCCGUGGUGGAGACAG | 0.0881 |
| UGGCCCUGGUGGCAUGCGGGGAGGAAGAGGUGGCCUCAUGGAUCGUGGUGGUCCCGGUGGAAUGUUCAGAGGUGGUCGUGGUGGAGACAG | 0.214 |
| UCCUGUGCUACACAUCGUAUGUACCGAAUCGGGGUUUUUGGGUUUUUGGGGUUUUUGGGGAAAGUAUUAUGUUACGCCGUUCGGAUCUGC | 0.466 |
| CUCAAGUCCUGUGCUACACAUCGUAUGUACCGAAUCGGGGAAGGAAGGAAGGGGAAAGUAUUAUGUUACGCCGUUCGGAUCUGCACUUCC | -0.21 |
| UCCUGUGCUACACAUCGUAUGUACCGAAUCGGAAAAAAGGGAAAAAAGGGGAAAAAAGGAAAGUAUUAUGUUACGCCGUUCGGAUCUGCA | -0.644 |
| UGGGAGGUGGAUUUUGUUUAUUUUUUUAGCUCAUUUCCAAGGGUGGGAAUUUUUUUUUAAUAUGUGUCAUGAAUAAAGUUGUUUUUGAAA | 0.0508 |
| UGGUGACCUACCUGGACGUCCGGAGCUGCCUUGGACACCUAGGCUACCUGGGCUACCCCACCCUCUGUGAGCAGGACCAGGCCCAUGCCA | -0.635 |
| GUCCUGUGCUACACAUCGUAUGUACCGAAUCGGGGAAAGGGGAAAAAAAGGGGAGGGGAAAGUAUUAUGUUACGCCGUUCGGAUCUGCAC | 0.29 |
| UCCUUUCUGUCAUUUUACACCCACAGUUGAAGAUUCCUGUCUCUGGAUCCAAAUCAGAGGGCCUUCUCUACGUCCACUCAUCCAGAGGUG | -1.45 |
| UCCUCAAGUCCUGUGCUACACAUCGUAUGUACCGAAUCGGGGUGGUGGUGGAAAGUAUUAUGUUACGCCGUUCGGAUCUGCACUUCCAGC | -0.0102 |
| CCUCAAGUCCUGUGCUACACAUCGUAUGUACCGAAUCGGUGGGGUGGGUGGGAAAGUAUUAUGUUACGCCGUUCGGAUCUGCACUUCCAG | 1.29 |
| ACCAUGCAGGUGGGCAUCUUUGGGAAGUGGGGCAAGGGGGGGAUAGGGAGGGGGGUAACCCUUUGGGAACAGGUGGUCCCAGGUCGUUUC | 0.673 |
| CUGUGCUACACAUCGUAUGUACCGAAUCGGGUUUUUUUGGUUUUUUUGGGUUUUUUUGGGGAAAGUAUUAUGUUACGCCGUUCGGAUCUG | -0.822 |

Block 3 — technique: RNA Bind-n-Seq; molecule type: RNA; medium: in vitro; tested at: 365 nM; relative to: no-protein control; direction: higher = stronger binding
Target: RNA binding protein fox-1 homolog 2, RRM domain, GST-SBP tag (RBFOX2, Homo sapiens, UniProt O43251-10, residues 100-194)
Notes: natural RNA segment, single round, ends assumed
Shared flanks, not repeated: GGGAGUUCUACAGUCCGACGAUC … UGGAAUUCUCGGGUGCCAA
Construct (chain): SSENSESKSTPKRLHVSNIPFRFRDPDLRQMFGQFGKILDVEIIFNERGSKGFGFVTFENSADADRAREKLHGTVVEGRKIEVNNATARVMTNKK
| Strand | RBNS enrichment (R) |
| --- | --- |
| CCUGGACGUGAGCUUCCCGCGGUGGCAGAACCGAAUGCUUUCUUCCCCCUCUCCUUCCUCCCCAGUGAGUUCACUUGCCAUUCGGGCACACUGGGUUAUUUCUCCGUCCU | 7.36 |
| AUCCCCUGCUUCCUGUUCCUUCAGCCUCCCUUCCCUUUCCUUCCUGGAUCUCUGAUUAUCUUGUGAUCAUAGCACCUGCUGUCGGCACACUCCCGUGAGUCCUGUGGUCA | 0.909 |
| GACCUUGCAAAUUCAGCCGCUGCUUUGAGCCCAAAAUGGGAAUAUUGGUUUUGUGUCCGAGGCUUGUUCCAAGUUUGUCAAUGAGGUUUAUGGAGCCUCCAGAACAGAUG | 1.29 |
| UAGCCCUGAGGUAGUCAGGGCUAGCUCCGGAUGGCUGGAGAAGCUGACCUUGUGCCUUAAGUCUACUAGUGCCUGAUGGAGCCACCCUCAUAGGGCUGAACCAGUGGGGC | 0.258 |
| AGGGGCCAUAUCAUUCAUGGCCAAAAAAAACCAAAAAGCAAAAAACAAAAACAAGUCCCAUGUCCUACUGACUCUAGUUCUUCCAGUCGUUAUCCUCUGCUGUCUCUCUG | 0.541 |
| UAGAUCUCCUGGGCCGGGCGUUCCAAACAGUUGUGAGCUACUGUGUGAGUGCUAGGAGCAAACCUGGAUCCUCUGCAAGAGCAACGAAUACUGGUAACCCCUGAACCAUU | 1.06 |
| AUAAAAGGAUGAUUUCUGUUUUCAUCUACUUAUGUGGAGUAUGACUCACACUUCUAUAUUUGCACUGGGGAAGACAUAUUCCUAAAAAUGGAUACAUAACAAAGAAUUCU | 0.367 |
| CCAUUUUAAAGUACAGUGCACAUAACUCCCUAGGCUGUUCCAACCUGACUAUUUGUAAAUGCUUUAGAGUUUUAAAUUAACACUUCUGUUGCUAAAUACUAUUUAUGUAA | 0.595 |
| GGCAGGAACCACUCUGGCUGUCCAGGGGCUCCUGAAAUCUUCUGGUCAUCUACAAAGGGUAACAGGAAGGGAGUUAACGAGGAUGGUGGGAUUCGGUUGAAGGUGCCUGG | 0.684 |
| GCCUCUGGGAACCGGGCUGGUGCCCUGCCUUUCCUGAGCAGGGCUCCUCCUCCAGAAGCGGUGGUCCAGGGGGUGGGGCUCUUAGUCCCUCUGGCCUUCCCCAUAUUACA | 0.26 |
| GCCUAAAAGUUAGUUAAUAGUUACUUUGGUUUAACCUAUACACAAUGAUUAAGUGCAUUUAAUAUUGGUAAUUUAAUGAAAACCAUUCCUUGCCCAAUGGAUGUAUAAAU | 0.523 |
| UCUCCACAUGUCUGCUGACAAGUUAAAGAAUCUAGCAUAUCGCAUUUGGUUUUACUUGUUGAUUUUGAGCCUUAUUGUCACAAAACAGCCUAGCUGGAAUAUUGAUGCCA | 0.44 |

Block 4 — technique: protein binding microarray; molecule type: double-stranded DNA, one strand shown; medium: in vitro; tested at: not given; relative to: not given; direction: higher = stronger binding
Target: Histone acetyltransferase KAT6A, winged helix 1, GST fusion (KAT6A, Homo sapiens, UniProt Q92794, residues 1-85)
Notes: 8-mer, flanks averaged, mean of 2 arrays, mostly near background
Target sequence (chain): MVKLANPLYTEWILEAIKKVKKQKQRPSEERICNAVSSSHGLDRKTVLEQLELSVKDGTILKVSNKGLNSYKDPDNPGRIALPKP
| Strand | E-score |
| --- | --- |
| CCATAACA | -0.107 |
| AAGCTGTA | -0.00058 |
| GTCGCTGA | 0.0862 |
| CCACCTGA | -0.188 |
| AGCTCCCA | -0.194 |
| GAGCACGA | -0.0753 |
| GAAGAGAA | -0.141 |
| GTCTTGAA | -0.0106 |
| AGCTTATG | -0.164 |
| CTACACAA | -0.181 |
| AAACCTAG | -0.109 |
| AAAATATA | 0.0214 |
| GATTTGTA | -0.154 |
| AGATAGTG | -0.228 |
| GAATGTCA | -0.305 |
| CGGAGCAC | 0.156 |
| ACCTAATC | -0.00877 |
| CGTTCCTC | 0.0264 |
| GCCGGCAC | 0.368 |
| ATGTAAGC | -0.0166 |
| CTAAGCAC | 0.00732 |
| GACACGCC | 0.1 |
| ATTTGGCC | -0.0933 |
| ACTGTACA | -0.201 |
| AGATAGTC | -0.0613 |

Excerpt of the above (block 1):
| Strand | fitted relative affinity |
| --- | --- |
| TCAAGTTCATGTTTTGGACTGTGCTAG | -0.214 z-score |
| TTAGGTTTCAGTCTCGATTAGTGCTAG | 8.25 z-score |
| GACGGCCTGGACACTGGGGACGTGCTA | -0.571 z-score |
| TCATTTTTTTTCATCATTGCGTGCTAG | 1.64 z-score |
| TTAGGACTGCTTATCTTTTAGTGCTAG | 0.0502 z-score |
| TTAGGTTTCGGTATCGTTTAGTGCTAG | 15.3 z-score |
| GACGGACTGGGACTGGGGAGGTGCTAG | -0.617 z-score |
| TTGGTTCTCAGCTTGGGGCAGTGCTAG | 0.614 z-score |
| GACGATATCAGTTTCGAGCCGTGCTAG | 3.06 z-score |
